Published values of several laboratories.
Protocols differ between the studies behind these lines.
Concentration: 1 µM
Sequence of UniProt O95835 (whole entry, looked up): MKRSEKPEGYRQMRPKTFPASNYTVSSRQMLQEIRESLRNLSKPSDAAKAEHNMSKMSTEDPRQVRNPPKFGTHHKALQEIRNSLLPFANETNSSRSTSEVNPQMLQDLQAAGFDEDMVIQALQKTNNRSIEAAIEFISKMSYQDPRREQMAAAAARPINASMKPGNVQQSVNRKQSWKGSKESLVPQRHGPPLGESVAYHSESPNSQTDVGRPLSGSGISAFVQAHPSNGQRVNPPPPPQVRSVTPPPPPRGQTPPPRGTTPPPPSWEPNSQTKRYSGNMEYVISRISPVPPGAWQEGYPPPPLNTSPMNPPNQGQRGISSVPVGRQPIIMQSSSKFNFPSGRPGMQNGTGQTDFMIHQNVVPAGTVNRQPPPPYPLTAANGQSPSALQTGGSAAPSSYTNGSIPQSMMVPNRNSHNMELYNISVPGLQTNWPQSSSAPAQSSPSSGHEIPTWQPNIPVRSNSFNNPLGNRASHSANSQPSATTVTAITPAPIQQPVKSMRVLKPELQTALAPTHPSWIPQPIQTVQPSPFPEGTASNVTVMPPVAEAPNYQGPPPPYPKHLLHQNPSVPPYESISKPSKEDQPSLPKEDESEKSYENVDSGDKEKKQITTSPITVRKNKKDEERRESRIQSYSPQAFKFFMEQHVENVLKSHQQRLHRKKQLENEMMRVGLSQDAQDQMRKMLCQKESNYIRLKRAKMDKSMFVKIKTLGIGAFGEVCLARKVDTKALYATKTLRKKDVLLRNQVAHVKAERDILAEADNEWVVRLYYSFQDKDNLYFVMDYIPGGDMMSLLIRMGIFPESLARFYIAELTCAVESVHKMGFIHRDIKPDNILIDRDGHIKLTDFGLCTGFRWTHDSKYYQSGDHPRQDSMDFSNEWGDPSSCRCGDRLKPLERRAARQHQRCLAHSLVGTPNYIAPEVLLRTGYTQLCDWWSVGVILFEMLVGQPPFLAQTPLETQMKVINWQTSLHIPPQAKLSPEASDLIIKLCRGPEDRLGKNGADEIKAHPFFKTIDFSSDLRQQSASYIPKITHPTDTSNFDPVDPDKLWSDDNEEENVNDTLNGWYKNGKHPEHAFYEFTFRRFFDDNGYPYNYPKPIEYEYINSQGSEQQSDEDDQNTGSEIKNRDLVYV
Sequence of UniProt P49137 (whole entry, looked up): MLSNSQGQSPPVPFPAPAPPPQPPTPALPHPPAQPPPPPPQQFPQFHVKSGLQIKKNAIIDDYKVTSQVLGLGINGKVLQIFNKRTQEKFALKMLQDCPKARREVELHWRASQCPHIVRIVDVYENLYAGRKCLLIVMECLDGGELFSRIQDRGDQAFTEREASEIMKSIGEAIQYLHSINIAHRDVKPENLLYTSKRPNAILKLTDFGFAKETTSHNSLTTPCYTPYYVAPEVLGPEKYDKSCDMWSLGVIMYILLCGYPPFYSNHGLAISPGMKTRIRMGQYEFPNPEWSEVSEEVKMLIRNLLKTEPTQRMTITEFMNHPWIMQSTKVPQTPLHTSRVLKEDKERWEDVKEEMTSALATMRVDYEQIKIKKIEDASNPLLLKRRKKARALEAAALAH

Structure (SMILES)	target	assay	quantity	result
COc1cc(-c2cncc3c2CN(C)Cc2cc(N4CCNCC4)ccc2-3)cc(OC)c1OC	RAF1 (Homo sapiens, UniProt P04049)	enzyme activity, inhibitor	remaining activity	101%
CNc1ncc2c(/C=C/C(=O)N3CCC(OC)CC3)nn(Cc3cccc(C(F)(F)F)c3)c2n1	RAF1 (Homo sapiens, UniProt P04049, Y340D/Y341D)	enzyme activity, inhibitor, radiometric	remaining activity	96%
C=CC(=O)N1CCC(COCC(=O)N2CCN(c3nc(-c4cnc(N)nc4C(F)F)nc(N4CCOC[C@@H]4C)n3)CC2)CC1	LATS1 (Homo sapiens, UniProt O95835)	binding, competition with immobilised ligand	remaining binding	96%
Cc1cc([C@@H](C)Nc2ccccc2C(=O)O)c2nc(N3CCC(F)(F)CC3)c(C#N)c(=O)n2c1	MAPKAPK2 (Homo sapiens, UniProt P49137)	binding, competition with immobilised ligand	remaining binding	58%

Excerpt of the above:
Structure (SMILES)	target	assay	quantity	result
CNc1ncc2c(/C=C/C(=O)N3CCC(OC)CC3)nn(Cc3cccc(C(F)(F)F)c3)c2n1	RAF1 (Homo sapiens, UniProt P04049, Y340D/Y341D)	enzyme activity, inhibitor, radiometric	remaining activity	96%
